Results collected from several papers.
Each line is one published result; not all experiments were run side by side. ± marks the error that the study gave.
14-3-3 protein epsilon: 14-3-3 protein epsilon (Homo sapiens, UniProt P62258)
Sequence of UniProt Q99895 (whole entry, unmodified, looked up): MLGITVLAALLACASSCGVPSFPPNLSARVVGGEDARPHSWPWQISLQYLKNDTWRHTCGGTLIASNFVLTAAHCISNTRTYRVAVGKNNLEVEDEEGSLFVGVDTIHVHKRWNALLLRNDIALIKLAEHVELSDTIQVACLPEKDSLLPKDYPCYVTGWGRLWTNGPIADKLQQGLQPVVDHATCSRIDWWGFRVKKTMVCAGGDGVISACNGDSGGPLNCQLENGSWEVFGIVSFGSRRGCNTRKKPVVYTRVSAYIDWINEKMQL
Sequence of UniProt P62258 (whole entry, looked up): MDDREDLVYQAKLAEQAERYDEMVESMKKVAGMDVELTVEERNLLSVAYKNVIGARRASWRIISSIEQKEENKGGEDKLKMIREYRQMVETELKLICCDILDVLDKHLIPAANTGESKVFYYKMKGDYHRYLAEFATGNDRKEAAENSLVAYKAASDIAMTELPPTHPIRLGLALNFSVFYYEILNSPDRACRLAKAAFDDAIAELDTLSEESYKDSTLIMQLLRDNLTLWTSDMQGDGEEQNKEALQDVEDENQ
Sequence of UniProt P36507 (whole entry, looked up): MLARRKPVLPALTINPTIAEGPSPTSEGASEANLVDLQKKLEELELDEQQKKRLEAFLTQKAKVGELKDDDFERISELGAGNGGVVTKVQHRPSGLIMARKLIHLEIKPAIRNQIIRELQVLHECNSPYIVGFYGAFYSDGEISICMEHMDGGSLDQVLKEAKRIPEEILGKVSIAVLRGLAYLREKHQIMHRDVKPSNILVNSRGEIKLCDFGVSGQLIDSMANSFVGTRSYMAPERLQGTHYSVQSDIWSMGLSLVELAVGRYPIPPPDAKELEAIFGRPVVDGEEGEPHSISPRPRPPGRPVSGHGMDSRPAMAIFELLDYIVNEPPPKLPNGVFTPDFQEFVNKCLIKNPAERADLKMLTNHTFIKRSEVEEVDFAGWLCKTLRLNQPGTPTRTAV
Sequence of UniProt O95619 (whole entry, looked up): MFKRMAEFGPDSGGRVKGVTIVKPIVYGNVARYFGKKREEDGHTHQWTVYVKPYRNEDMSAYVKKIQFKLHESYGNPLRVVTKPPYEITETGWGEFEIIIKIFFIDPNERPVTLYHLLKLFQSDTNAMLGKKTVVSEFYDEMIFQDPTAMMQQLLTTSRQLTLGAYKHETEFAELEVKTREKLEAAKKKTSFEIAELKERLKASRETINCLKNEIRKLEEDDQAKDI
Sequence of UniProt Q8RY59 (whole entry, looked up): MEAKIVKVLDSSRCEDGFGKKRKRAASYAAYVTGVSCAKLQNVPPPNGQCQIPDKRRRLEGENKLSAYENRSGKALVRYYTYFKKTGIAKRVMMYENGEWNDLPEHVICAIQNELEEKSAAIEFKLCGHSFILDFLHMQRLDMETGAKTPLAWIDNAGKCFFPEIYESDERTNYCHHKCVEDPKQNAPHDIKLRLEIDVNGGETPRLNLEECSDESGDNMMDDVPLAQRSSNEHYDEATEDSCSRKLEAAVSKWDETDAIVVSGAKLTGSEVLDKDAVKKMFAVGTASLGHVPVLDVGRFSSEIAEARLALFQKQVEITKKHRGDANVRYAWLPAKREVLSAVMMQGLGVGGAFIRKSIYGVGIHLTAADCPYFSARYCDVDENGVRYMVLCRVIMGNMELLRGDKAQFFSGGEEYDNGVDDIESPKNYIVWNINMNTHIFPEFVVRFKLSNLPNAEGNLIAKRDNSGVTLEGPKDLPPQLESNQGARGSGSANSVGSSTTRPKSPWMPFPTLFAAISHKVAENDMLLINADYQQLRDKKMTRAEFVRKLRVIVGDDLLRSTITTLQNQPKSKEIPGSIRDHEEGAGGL
Sequence of UniProt Q07820 (whole entry, looked up): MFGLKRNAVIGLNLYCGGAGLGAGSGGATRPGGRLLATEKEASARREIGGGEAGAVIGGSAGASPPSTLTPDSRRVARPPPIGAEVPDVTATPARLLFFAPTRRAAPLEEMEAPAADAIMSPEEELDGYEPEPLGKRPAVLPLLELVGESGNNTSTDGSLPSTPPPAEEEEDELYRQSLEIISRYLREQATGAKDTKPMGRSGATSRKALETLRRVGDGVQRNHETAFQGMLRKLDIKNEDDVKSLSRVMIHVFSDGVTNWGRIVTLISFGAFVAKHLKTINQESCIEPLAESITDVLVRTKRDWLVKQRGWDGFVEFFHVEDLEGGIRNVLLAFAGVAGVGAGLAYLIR
Sequence of UniProt A0QYE8 (whole entry, looked up): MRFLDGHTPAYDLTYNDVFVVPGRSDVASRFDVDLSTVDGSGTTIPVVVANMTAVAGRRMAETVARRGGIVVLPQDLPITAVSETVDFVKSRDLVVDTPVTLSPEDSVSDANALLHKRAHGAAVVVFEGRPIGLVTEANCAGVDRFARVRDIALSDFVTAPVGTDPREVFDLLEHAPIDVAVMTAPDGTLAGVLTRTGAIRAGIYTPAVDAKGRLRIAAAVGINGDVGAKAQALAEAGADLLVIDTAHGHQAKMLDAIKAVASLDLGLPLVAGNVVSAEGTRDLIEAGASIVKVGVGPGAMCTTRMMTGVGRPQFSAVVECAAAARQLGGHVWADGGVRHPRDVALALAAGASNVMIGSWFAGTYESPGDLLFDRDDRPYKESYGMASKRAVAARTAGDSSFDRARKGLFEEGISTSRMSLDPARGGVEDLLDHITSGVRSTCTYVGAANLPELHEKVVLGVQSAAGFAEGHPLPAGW
Sequence of UniProt P52735 (whole entry, looked up): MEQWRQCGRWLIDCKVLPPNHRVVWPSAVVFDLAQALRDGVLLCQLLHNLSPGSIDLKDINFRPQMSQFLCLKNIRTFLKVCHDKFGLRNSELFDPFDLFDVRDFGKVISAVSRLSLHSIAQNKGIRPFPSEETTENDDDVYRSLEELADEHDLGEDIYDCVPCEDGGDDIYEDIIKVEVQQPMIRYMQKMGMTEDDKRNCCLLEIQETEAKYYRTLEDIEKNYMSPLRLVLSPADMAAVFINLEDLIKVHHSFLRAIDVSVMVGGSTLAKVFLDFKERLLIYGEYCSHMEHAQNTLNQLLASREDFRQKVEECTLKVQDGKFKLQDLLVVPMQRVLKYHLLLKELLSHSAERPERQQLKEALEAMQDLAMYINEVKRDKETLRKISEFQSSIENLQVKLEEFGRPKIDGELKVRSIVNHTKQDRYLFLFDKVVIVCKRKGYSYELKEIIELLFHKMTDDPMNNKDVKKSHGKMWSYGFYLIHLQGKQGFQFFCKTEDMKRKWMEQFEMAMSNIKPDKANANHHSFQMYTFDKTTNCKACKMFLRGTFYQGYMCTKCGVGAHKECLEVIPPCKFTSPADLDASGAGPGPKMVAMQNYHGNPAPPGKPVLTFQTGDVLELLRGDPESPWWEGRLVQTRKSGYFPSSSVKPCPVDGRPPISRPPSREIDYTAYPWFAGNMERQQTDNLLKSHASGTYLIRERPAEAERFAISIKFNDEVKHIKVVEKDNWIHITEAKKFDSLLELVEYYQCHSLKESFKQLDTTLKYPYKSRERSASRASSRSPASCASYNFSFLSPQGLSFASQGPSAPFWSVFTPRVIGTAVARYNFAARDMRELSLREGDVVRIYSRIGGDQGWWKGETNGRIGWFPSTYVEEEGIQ
Sequence of UniProt Q9WVQ1 (whole entry, looked up): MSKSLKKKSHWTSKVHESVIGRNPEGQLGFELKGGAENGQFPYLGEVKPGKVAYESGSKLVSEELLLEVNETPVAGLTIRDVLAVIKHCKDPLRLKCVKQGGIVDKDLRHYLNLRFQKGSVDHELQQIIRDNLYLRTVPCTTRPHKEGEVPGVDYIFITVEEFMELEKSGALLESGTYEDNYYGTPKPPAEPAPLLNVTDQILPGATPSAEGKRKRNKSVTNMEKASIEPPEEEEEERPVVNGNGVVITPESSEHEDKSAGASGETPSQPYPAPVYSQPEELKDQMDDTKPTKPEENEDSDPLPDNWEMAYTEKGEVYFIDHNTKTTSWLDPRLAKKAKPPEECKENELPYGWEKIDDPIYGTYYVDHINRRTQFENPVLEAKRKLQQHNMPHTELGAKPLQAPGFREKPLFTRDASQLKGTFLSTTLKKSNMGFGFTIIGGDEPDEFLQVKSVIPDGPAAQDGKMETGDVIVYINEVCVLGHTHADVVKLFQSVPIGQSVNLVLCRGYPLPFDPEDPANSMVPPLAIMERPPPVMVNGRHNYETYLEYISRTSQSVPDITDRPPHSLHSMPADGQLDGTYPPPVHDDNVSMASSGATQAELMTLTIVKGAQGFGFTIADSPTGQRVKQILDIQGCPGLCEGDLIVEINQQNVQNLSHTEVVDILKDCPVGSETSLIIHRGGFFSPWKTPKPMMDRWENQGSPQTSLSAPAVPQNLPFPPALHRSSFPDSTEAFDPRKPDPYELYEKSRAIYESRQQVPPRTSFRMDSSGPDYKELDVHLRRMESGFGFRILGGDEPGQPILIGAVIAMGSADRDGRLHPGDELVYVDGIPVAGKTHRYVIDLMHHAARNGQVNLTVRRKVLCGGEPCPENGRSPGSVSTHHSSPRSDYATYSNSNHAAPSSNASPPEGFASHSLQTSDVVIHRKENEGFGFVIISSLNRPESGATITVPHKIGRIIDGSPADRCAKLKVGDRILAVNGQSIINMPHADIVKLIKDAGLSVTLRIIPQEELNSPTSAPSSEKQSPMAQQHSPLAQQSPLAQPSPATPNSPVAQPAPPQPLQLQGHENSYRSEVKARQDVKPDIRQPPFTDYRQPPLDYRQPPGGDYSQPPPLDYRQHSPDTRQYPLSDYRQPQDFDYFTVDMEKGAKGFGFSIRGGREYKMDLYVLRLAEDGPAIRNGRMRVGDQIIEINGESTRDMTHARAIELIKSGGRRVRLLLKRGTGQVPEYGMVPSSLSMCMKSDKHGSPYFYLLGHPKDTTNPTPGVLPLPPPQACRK

Molecule | target | assay | conditions | Kd
CC(=O)NCCCC[C@H](NC(=O)CNC(=O)CNC(=O)[C@@H](NC(=O)[C@H](CO)NC(=O)[C@H](CCCCN)NC(=O)[C@H](CCCNC(=N)N)NC(=O)[C@H](C)NC(=O)[C@@H](NC(=O)[C@H](CCC(N)=O)NC(=O)[C@H](CCCCN)NC(=O)[C@@H](NC(=O)[C@H](CCCNC(=N)N)NC(=O)[C@H](C)N)[C@@H](C)OP(=O)(O)O)[C@@H](C)O)[C@@H](C)O)C(=O)N[C@@H](C)C(=O)N1CCC[C@H]1C(=O)N[C@@H](CCCNC(=N)N)C(=O)N[C@@H](CCCCN)C(=O)N[C@@H](CCC(N)=O)C(=O)O | YEATS domain-containing protein 4, YEATS domain (Homo sapiens, UniProt O95619) | isothermal titration calorimetry | pH 7.6, 25 °C, with: histone peptide | 170000 nM
CSCC[C@H](NC(=O)CNC(=O)[C@H](CCCNC(=N)N)NC(=O)[C@H](C)NC(=O)[C@@H](NC(=O)[C@H](CCC(N)=O)NC(=O)[C@H](Cc1ccc(OP(=O)(O)O)cc1)NC(=O)[C@H](C)NC(=O)[C@H](CS)NC(=O)[C@H](CO)NC(=O)[C@@H](NC(=O)[C@H](CC(C)C)NC(=O)[C@H](CC(=O)O)NC(=O)[C@H](CCCCN)NC(=O)[C@H](CO)NC(=O)[C@H](CO)NC(=O)c1ccc2c(c1)C(=O)OC21c2ccc(N(C)C)cc2Oc2cc(N(C)C)ccc21)C(C)C)C(C)C)C(=O)N[C@@H](CCC(=O)O)C(=O)N[C@@H](CC(=O)O)C(=O)O | Guanine nucleotide exchange factor VAV2, SH2 domain (VAV2, Homo sapiens, UniProt P52735) | binding |  | 62 nM
CC[C@H](C)[C@H](NC(=O)[C@H](CCC(=O)O)NC(=O)[C@H](CC(C)C)NC(=O)[C@H](Cc1ccc(O)cc1)NC(=O)[C@H](CCSC)NC(=O)[C@H](CC(=O)O)NC(=O)[C@H](CCC(=O)O)NC(=O)[C@H](CCC(=O)O)NC(=O)[C@H](CC(C)C)NC(=O)[C@@H](N)CC(N)=O)C(=O)N[C@@H](CC(N)=O)C(=O)N[C@@H](CC(=O)O)C(=O)N[C@@H](CC(C)C)C(=O)N[C@@H](CCSC)C(=O)N[C@@H](CCC(=O)O)C(=O)N1CCC[C@H]1C(=O)N[C@@H](CCC(=O)O)C(=O)N1CCC[C@H]1C(=O)N[C@@H](CCC(=O)O)C(=O)N1CCC[C@H]1C(=O)N[C@H](C(=O)O)[C@@H](C)O | RCD1 (Arabidopsis thaliana, UniProt Q8RY59) | ITC | salt 0 mM | 22.7 nM
CC[C@H](C)[C@H](NC(=O)[C@H](CCCNC(=N)N)NC(=O)[C@H](CCCNC(=N)N)NC(=O)[C@H](CC(C)C)NC(=O)[C@H](CCC(=O)O)NC(=O)[C@H](CCC(N)=O)NC(=O)[C@H](C)NC(=O)[C@@H](NC(=O)[C@H](CNC(=O)CCl)NC(C)=O)[C@@H](C)CC)C(=O)NCC(=O)N[C@@H](CC(=O)O)C(=O)N[C@@H](CCC(=O)O)C(=O)N[C@@H](Cc1ccccc1)C(=O)N[C@@H](CC(N)=O)C(=O)N[C@@H](C)C(=O)N[C@@H](Cc1ccc(O)cc1)C(=O)N[C@@H](Cc1ccc(O)cc1)C(=O)N[C@@H](C)C(=O)N[C@@H](CCCNC(=N)N)C(=O)N[C@@H](CCCNC(=N)N)C(N)=O | Induced myeloid leukemia cell differentiation protein Mcl-1 (MCL1, Homo sapiens, UniProt Q07820) | binding, ITC |  | 2 nM
CC(=O)N[C@@H](CCCNC(=N)N)C(=O)N[C@H](C(=O)N[C@@H](CCCCN)C(=O)N[C@@H](CO)C(=O)N[C@@H](CCCNC(=N)N)C(=O)N[C@H](C(=O)N[C@@H](Cc1c[nH]c2ccccc12)C(=O)N[C@@H](C)C(=O)N[C@@H](C)C(N)=O)[C@@H](C)OP(=O)(O)O)[C@@H](C)O | 14-3-3 protein epsilon | binding, SPR | pH 7.4 | 75.4 nM
CC[C@H](C)[C@H](NC(=O)[C@H](CO)NC(=O)[C@H](CO)NC(=O)[C@H](CCC(=O)O)NC(=O)[C@H](CCC(=O)O)NC(=O)[C@H](CCCCN)NC(=O)[C@H](CO)NC(=O)[C@@H](NC(=O)[C@H](CO)NC(=O)[C@H](CC(C)C)NC(=O)[C@H](Cc1ccccc1)NC(=O)[C@H](CCCNC(=N)N)NC(=O)[C@H](C)NC(=O)[C@H](Cc1ccccc1)NC(=O)[C@H](Cc1ccccc1)NC(=O)[C@@H]1CCCN1C(=O)[C@H](CC(C)C)NC(=O)[C@H](C)NC(=O)[C@H](CCCCN)NC(=O)CNC(=O)[C@H](CCC(N)=O)NC(=O)[C@H](CCC(N)=O)NC(=O)[C@H](CC(=O)O)NC(=O)[C@H](CC(N)=O)NC(=O)[C@@H]1CCCN1C(=O)[C@H](Cc1ccc(O)cc1)NC(=O)[C@H](C)NC(=O)[C@@H](N)CCSC)C(C)C)C(=O)N[C@@H](CCCCN)C(=O)N[C@@H](CO)C(=O)N1CCC[C@H]1C(=O)N[C@@H](CO)C(=O)N1CCC[C@H]1C(=O)N[C@@H](CC(=O)O)C(=O)N[C@@H](Cc1c[nH]cn1)C(=O)N[C@@H](CCC(=O)O)C(=O)N[C@H](C(=O)N[C@@H](CO)C(=O)N[C@H](C(=O)N[C@@H](CCCNC(=N)N)C(=O)N[C@@H](CCCCN)C(=O)N[C@@H](Cc1ccc(O)cc1)C(=O)N1CCC[C@H]1C(=O)N[C@@H](CO)C(=O)N[C@@H](CC(=O)O)C(=O)N[C@@H](Cc1c[nH]c2ccccc12)C(=O)N[C@@H](CCC(=O)O)C(=O)N[C@@H](CCC(=O)O)C(=O)N[C@@H](Cc1c[nH]c2ccccc12)C(=O)O)[C@@H](C)O)[C@@H](C)CC | uncharacterized protein (Microcystis aeruginosa MRC, UniProt B2G3D0, D281A) |  |  | 568 ± 80 nM
CSCC[C@@H]1NC(=O)[C@H](CC(C)C)NC(=O)[C@H](Cc2c[nH]c3ccccc23)NC(=O)[C@@H]2CSSC[C@@H]3NC(=O)[C@H]([C@@H](C)O)NC(=O)[C@H](CC(N)=O)NC(=O)[C@H](CSSC[C@@H](C(=O)N[C@@H](CC(=O)O)C(=O)N[C@@H](CCC(N)=O)C(=O)O)NC(=O)[C@H](CC(C)C)NC1=O)NC(=O)[C@H](CCCCN)NC(=O)[C@H](CC(=O)O)NC(=O)[C@H](CCCCN)NC(=O)[C@H](Cc1ccccc1)NC(=O)[C@H]([C@@H](C)O)NC(=O)[C@H]([C@@H](C)O)NC(=O)CNC(=O)[C@@H]1CCCN1C(=O)[C@H](CCC(=O)O)NC(=O)[C@@H](NC(=O)[C@@H](NC(=O)[C@@H](NC(=O)[C@H](CCC(=O)O)NC(=O)[C@H](CO)NC(=O)CN)C(C)C)[C@@H](C)O)CSSC[C@H](NC(=O)[C@H](CCCNC(=N)N)NC3=O)C(=O)NCC(=O)N[C@@H](CO)C(=O)N[C@@H](CC(=O)O)C(=O)NCC(=O)N[C@@H](CCCCN)C(=O)N[C@@H](CO)C(=O)N[C@@H](C)C(=O)N[C@@H](C)C(=O)N2 | Chymotrypsin-C (Homo sapiens, UniProt Q99895) | cell-free assay, FP | pH 8 | 9.71 nM
CC(C)C[C@H](NC(=O)[C@H](CCP(=O)(O)O)NC(=O)[C@@H](NC(=O)[C@@H](NC(=O)[C@H](CCCNC(=N)N)NC(=O)[C@H](CC(C)C)NC(=O)[C@H](CO)NC(=S)Nc1ccc2c(c1)C(=O)OC21c2ccc(O)cc2Oc2cc(O)ccc21)[C@@H](C)O)C(C)C)C(=O)NCC(=O)N[C@@H](C)C(=O)NCC(=O)N[C@@H](C)C(=O)N[C@@H](Cc1c[nH]c2ccccc12)C(=O)N[C@@H](CC(C)C)C(=O)N[C@H](C(=O)N1CCC[C@H]1C(=O)N[C@@H](CCCNC(=N)N)C(=O)O)C(C)C | 14-3-3 protein epsilon | binding, fluorescence anisotropy | pH 7.5, FITC-labelled phosphopeptide titration | 56200 nM
O=C(N[C@@H]1c2ccccc2C[C@H]1N1CCCC1)c1ccc(-c2ccnc3[nH]ccc23)nc1 | Dual specificity mitogen-activated protein kinase kinase 2 (MAP2K2, Homo sapiens, UniProt P36507) | binding, competition with immobilised ligand |  | 3000 nM
CC(C)C[C@H](NC(=O)[C@H](CO)NC(=O)[C@@H]1CCCN1C(=O)[C@H](CCC(N)=O)NC(=O)[C@@H](NC(=O)[C@H](C)NC(=O)[C@H](CCCCN)NC(=O)[C@H](C)NC(=O)[C@H](Cc1ccc(O)cc1)NC(=O)[C@H](COP(=O)(O)O)NC(=O)[C@H](CCC(=O)O)NC(=O)[C@H](CCCNC(=N)N)NC(=O)[C@H](CCCNC(=N)N)NC(=O)[C@H](C)NC(=O)[C@H](C)N)[C@@H](C)O)C(=O)O | Membrane-associated guanylate kinase, WW and PDZ domain-containing protein 2 (Magi2, Mus musculus, UniProt Q9WVQ1) | ITC | pH 8.0, 25 °C, with: tandem peptide | 30 ± 10 nM
CSCC[C@@H]1NC(=O)[C@H](C)NC(=O)[C@H](CO)NC(=O)[C@H](CCCCN)NC(=O)CNC(=O)[C@H](CC(=O)O)NC(=O)[C@H](CO)NC(=O)CNC(=O)[C@@H]2CSSC[C@H](NC(=O)[C@@H](NC(=O)[C@@H](NC(=O)[C@H](CCC(=O)O)NC(=O)[C@H](CO)NC(=O)CN)C(C)C)[C@@H](C)O)C(=O)N[C@@H](CCC(=O)O)C(=O)N3CCC[C@H]3C(=O)NCC(=O)N[C@@H]([C@@H](C)O)C(=O)N[C@@H]([C@@H](C)O)C(=O)N[C@@H](Cc3ccccc3)C(=O)N[C@@H](CCCCN)C(=O)N[C@@H](CC(=O)O)C(=O)N[C@@H](CCCCN)C(=O)N[C@H]3CSSC[C@@H](C(=O)N[C@@H](Cc4c[nH]c5ccccc45)C(=O)N[C@@H](CCC(N)=O)C(=O)O)NC(=O)[C@H](CC(C)C)NC(=O)[C@H](CCSC)NC(=O)[C@H](CC(C)C)NC(=O)[C@H](CO)NC(=O)[C@H](CSSC[C@H](NC(=O)[C@H]([C@@H](C)O)NC(=O)[C@H](CC(N)=O)NC3=O)C(=O)N[C@@H](CCCNC(=N)N)C(=O)N2)NC1=O | Chymotrypsin-C (Homo sapiens, UniProt Q99895, S216A) | competitive fluorescence polarization | 24 h, pH 8.0, with: FITC-labelled tracer | 0.24 ± 0.03 nM
BODIPY-ATP | GMP reductase (guaB1, Mycolicibacterium smegmatis, UniProt A0QYE8) | fluorescence anisotropy | pH 6.6, 25 °C, without GMP | 13500 ± 3400 nM
